Published values gathered from unrelated publications.
Every numbered part comes from another study and shows a few of its results, in no order.

Block 1 — method: RNA Bind-n-Seq; form: RNA; matrix: in vitro; concentration: 1 µM; notes: whole 134-nt RNA, ends assumed; with: 150 mM KCl; baseline: input library; direction: higher = stronger binding; quantity: log2 enrichment
Target: Ras GTPase-activating protein-binding protein 1, C-terminal RGG region (G3BP1, Homo sapiens, UniProt Q13283)
Sequence of UniProt Q13283 (whole entry, looked up): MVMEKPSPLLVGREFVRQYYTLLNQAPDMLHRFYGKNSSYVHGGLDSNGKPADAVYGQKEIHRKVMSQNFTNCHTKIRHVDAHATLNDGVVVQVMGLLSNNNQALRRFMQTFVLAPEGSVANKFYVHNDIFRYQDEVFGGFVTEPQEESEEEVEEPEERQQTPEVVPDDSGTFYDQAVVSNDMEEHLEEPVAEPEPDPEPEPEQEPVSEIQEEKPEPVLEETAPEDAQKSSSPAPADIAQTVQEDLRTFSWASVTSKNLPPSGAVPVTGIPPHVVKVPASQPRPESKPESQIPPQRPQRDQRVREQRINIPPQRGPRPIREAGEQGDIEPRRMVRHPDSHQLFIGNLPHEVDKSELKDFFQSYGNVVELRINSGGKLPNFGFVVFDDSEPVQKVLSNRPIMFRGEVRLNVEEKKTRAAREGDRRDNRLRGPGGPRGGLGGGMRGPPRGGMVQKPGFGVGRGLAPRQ
GGGAGUUCUACAGUCCGACGAUCUGUCUGCGGACCUGGUUUCAGCGCUGGUGGGACUGCAGCCGGAGGUCAGCCCAGCAGAGACUGCAGCUGGAGAGGGCAGUGCAACACCACUGGAAUUCUCGGGUGUCAAGG: -1.2
GGGAGUUCUACAGUCCGACGAUCCACAGACAACACGCACCCACACAGACACAGAGGGAAGGGGUUGGGAUGGGGACAGGGUGCACAGCAGGGCGGGGUAGGACCCCAGCGCCUUGGAAUUCUCGGGUGUCAAGG: -0.751
GGGAGUUCUACAGUCCGACGAUCUAACUUUAAAGGAGGAUCUGAUGGAUAUGGCAGUGGACGUGGAUUUGGGGAUGGCUAUAAUGGGUAUGGAGGAGGACCUGGAGGUGGCAAUGGAAUUCUCGGGUGUCAAGG: -1.34

Block 2 — method: protein binding microarray; form: double-stranded DNA, one strand shown; matrix: in vitro; concentration: not given; baseline: not given; direction: higher = stronger binding; quantity: E-score
Target: Histone acetyltransferase KAT6A, both winged helices, GST fusion (KAT6A, Homo sapiens, UniProt Q92794, residues 1-181)
Notes: 8-mer, flanks averaged, mean of 2 arrays, mostly near background
Target sequence (chain): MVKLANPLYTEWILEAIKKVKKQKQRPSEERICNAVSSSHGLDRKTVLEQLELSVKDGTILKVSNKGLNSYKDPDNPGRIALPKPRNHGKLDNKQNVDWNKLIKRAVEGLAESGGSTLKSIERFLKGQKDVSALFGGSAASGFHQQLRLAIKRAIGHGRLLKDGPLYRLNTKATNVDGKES
GACCGCGC: 0.3
GCCTCACA: -0.139
CAAGCGGC: 0.339
ATATACTA: 0.0293

Block 3 — method: universal PBM; form: double-stranded DNA, one strand shown; matrix: in vitro; concentration: 600 nM; direction: higher = stronger binding; quantity: E-score
Target: Sal-like protein 4, full length isoform A (SALL4, Homo sapiens, UniProt Q9UJQ4, residues 1-1053)
Sequence of UniProt Q9UJQ4 (whole entry, looked up): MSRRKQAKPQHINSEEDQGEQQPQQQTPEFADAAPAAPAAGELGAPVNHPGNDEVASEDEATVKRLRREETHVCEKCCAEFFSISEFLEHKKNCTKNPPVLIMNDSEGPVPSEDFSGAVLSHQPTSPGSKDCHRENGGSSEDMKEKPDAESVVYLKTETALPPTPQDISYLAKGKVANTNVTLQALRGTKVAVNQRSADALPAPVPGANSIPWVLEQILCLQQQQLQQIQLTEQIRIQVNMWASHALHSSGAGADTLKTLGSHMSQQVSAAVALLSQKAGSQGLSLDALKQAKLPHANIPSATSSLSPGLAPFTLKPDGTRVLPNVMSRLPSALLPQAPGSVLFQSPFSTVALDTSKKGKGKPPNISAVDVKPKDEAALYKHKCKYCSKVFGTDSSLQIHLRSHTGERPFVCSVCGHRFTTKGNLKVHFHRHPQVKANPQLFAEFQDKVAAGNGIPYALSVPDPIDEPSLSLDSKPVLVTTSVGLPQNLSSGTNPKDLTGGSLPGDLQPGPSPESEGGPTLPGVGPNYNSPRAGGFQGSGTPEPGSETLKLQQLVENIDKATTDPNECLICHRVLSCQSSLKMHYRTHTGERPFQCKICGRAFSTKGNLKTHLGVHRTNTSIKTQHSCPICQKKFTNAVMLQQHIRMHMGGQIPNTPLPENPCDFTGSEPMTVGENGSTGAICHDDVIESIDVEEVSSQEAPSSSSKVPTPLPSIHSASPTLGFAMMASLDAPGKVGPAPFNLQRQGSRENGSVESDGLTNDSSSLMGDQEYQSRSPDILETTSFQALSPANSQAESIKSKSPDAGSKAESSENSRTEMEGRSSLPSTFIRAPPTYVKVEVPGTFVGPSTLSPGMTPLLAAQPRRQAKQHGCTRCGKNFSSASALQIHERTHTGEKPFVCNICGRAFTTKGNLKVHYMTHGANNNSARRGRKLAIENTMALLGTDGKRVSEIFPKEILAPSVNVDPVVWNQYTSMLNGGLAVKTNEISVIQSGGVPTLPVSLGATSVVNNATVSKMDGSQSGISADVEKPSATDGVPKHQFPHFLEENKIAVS
Notes: 8-mer, flanks averaged, mean of replicates
CGGGAGAC: -0.192
AGTATATC: 0.2
TATAACAA: 0.349
AGAAAGGA: -0.00169

Single results of other studies
PhoQ, residues 284 288 289 292 302 303 SNGLAW — fold induction (PhoP, residues 12 14 15 18 19 GQAIL (Escherichia coli, UniProt P23836); Sort-seq, refers to: YFP reporter; E. coli; PhoQ-PhoP variant library, with: 10 µM Mg2+; baseline: high Mg2+ state, higher = stronger signaling): 9.89

Repeated from above (block 1):
GGGAGUUCUACAGUCCGACGAUCCACAGACAACACGCACCCACACAGACACAGAGGGAAGGGGUUGGGAUGGGGACAGGGUGCACAGCAGGGCGGGGUAGGACCCCAGCGCCUUGGAAUUCUCGGGUGUCAAGG: -0.751
GGGAGUUCUACAGUCCGACGAUCUGUCUGCGGACCUGGUUUCAGCGCUGGUGGGACUGCAGCCGGAGGUCAGCCCAGCAGAGACUGCAGCUGGAGAGGGCAGUGCAACACCACUGGAAUUCUCGGGUGUCAAGG: -1.2
